Published values from different studies.
A part holds a random share of what one study measured. Positions count from the first letter of the parent shown.

Series 1
Target: CCNE1, cyclin fold, Cln2 fusion (human)
Technique: yeast growth competition, sequencing
Sample: yeast
Setting: weak parent motif
Reference: not given
Reading: higher = stronger binding
Quantity: normalised enrichment score
Parent: CDC6 docking peptide (human); TLKGRRLVFDNQL
Substitution = D10V; result = 0.228
Substitution = K3F; result = 0.425
Substitution = R5A; result = 0.209
Substitution = R5V; result = 0.778
Substitution = R6A; result = -0.266
Substitution = G4C; result = 1.05
Substitution = N11K; result = -0.136
Substitution = D10W; result = 0.482
Substitution = T1D; result = -0.175
Substitution = T1Y; result = 0.16
Substitution = G4Y; result = 0.415
Substitution = Q12N; result = 0.534
Substitution = Q12A; result = 0.0212
Substitution = N11W; result = 1.35
Substitution = Q12P; result = -0.0359
Substitution = L7N; result = 0.0867
Substitution = R6I; result = 0.461
Substitution = D10M; result = 0.931
Substitution = L13M; result = 0.177
Substitution = L13H; result = -0.478
Substitution = K3W; result = 0.336
Substitution = T1R; result = 0.345
Substitution = G4M; result = 1.01
Substitution = D10Q; result = 0.681
Substitution = F9P; result = 0.52

Series 2
Target: DDIT3, bZIP domain (human)
Technique: DHFR protein complementation
Sample: yeast
Setting: single substitutions, most at no-binding floor
Reference: wild-type JUN-FOS pair
Reading: higher = stronger binding
Quantity: binding fitness
Parent: JUN, bZIP domain (human); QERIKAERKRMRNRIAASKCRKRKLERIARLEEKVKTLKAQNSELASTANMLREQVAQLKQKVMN; partner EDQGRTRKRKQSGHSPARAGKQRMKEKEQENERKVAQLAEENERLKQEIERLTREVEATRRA
Substitution = E54H; result = -0.0915 natural log
Substitution = T48E; result = -0.149 natural log
Substitution = S47T; result = 0.0507 natural log
Substitution = R53H; result = -0.542 natural log
Substitution = S47W; result = -0.0199 natural log
Substitution = L31C; result = -0.773 natural log
Substitution = K36S; result = 0.00746 natural log
Substitution = V56P; result = -1.16 natural log
Substitution = L38E; result = -1.06 natural log
Substitution = Q41F; result = -1.42 natural log
Substitution = Q41P; result = -1.5 natural log
Substitution = T37V; result = 0.0865 natural log
Substitution = L31R; result = -0.865 natural log
Substitution = S47V; result = 0.123 natural log
Substitution = S47D; result = 0.12 natural log
Substitution = E44S; result = -0.105 natural log
Substitution = Q55I; result = -0.0569 natural log

Series 3
Target: ABI1, truncated, D143A, DHFR fusion (Arabidopsis thaliana)
Technique: DHFR PCA, deep sequencing
Sample: yeast
Setting: methotrexate growth selection, single substitutions
With: (+)-ABA 58 µM
Reference: wild-type fitted maximum
Reading: higher = stronger binding
Quantity: relative binding score
Parent: PYL1, truncated, DHFR fusion (Arabidopsis thaliana); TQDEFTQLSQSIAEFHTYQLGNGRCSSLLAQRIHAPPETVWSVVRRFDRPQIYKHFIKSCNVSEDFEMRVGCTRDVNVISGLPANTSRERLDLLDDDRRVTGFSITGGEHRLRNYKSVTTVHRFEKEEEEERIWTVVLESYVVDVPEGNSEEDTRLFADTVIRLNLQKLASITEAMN; partner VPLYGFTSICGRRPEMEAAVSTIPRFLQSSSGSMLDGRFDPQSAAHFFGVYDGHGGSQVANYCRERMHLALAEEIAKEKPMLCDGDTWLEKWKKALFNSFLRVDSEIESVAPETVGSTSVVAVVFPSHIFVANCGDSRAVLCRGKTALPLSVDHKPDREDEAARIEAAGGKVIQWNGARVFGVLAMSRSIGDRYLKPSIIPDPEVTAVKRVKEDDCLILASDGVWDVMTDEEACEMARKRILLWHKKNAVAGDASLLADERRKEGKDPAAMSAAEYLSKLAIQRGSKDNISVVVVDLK
Substitution = R49C; result = 79.8%
Substitution = C25H; result = 27.1%
Substitution = P146R; result = 4.27%
Substitution = V70Y; result = 30.8%
Substitution = C60N; result = 2.16%
Substitution = F15A; result = 25.6%
Substitution = V78T; result = 70%
Substitution = P146S; result = 40.3%
Substitution = H122V; result = 27.5%
Substitution = P83R; result = 1.47%
Substitution = R69V; result = 87.1%

Series 4
Target: RNA binding protein fox-1 homolog 2, RRM domain, GST-SBP tag (RBFOX2, Homo sapiens, UniProt O43251-10, residues 100-194)
Technique: RNA Bind-n-Seq
Form: RNA
Sample: in vitro
Concentration: 365 nM
Setting: natural RNA segment, single round, ends assumed
Reference: no-protein control
Reading: higher = stronger binding
Quantity: RBNS enrichment (R)
Shared flanks, not repeated: GGGAGUUCUACAGUCCGACGAUC … UGGAAUUCUCGGGUGCCAA
Target sequence (chain): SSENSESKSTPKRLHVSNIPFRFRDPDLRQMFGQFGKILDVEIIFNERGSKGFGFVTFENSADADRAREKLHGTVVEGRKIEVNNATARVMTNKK
Sequence = UUCUGCCCCCAGCCCCACCCCCCAACCAGUCUGCCUGUUGCCCCACUCAGCCCUGAGUGUUAGGCACUGGCAGAGAGGCAAUGGCAGGCUCACCUUGAUGGAGGGACUGG; result = 0.487
Sequence = CUCAAGCAUUUUCACUUUGUUUCUUACAUGUGUACUUUUUUGUUUACUUGUGAAAAUGGCCAUCUUUAAGCAUAUUUAUUUUCUGCCACUUUAUUUAAAGGCAAGCAAUA; result = 1.04
Sequence = GUCUCUGUAGCUAAUUUAAUUUGCUCUUCGUGUGGCAGAUCAUUCUGCCAAAAUACUUGAACACUGUGUUUUAUUGUGGUAAUUAUGUUUUGUGACUCAAACUUCUGUGC; result = 0.806
Sequence = UUAUCUUAAUACAUCAAGAAGGAAAUCAGAUUUCAGGCACACAUUAGCAAUUGUUUGUUAAUGUCCUUGGCAAACGUGUACCUGCUUUCCUUCAUUGUUCUCUUCAGGGG; result = 0.477
Sequence = UUUAGUGACUAGUGUGUAGUGAGUCACGAUCAAGGCAUCCUUCAGCUUAGCAUUUUCAGUACUCACUGCUGAUCCUUGGUAGAAGUGCAGACUAGAAUAGAGCUAAAAAU; result = 0.608
Sequence = GCUCAGCCUGUCCCCCACUCCUGCCUGCUUCCCGGUGAGCUGCCCCCCACACGUGCAGCCCGGGCUGCCUCCAGGGUCUGGCUGAGUGGGAUCAGGUGGCCCUCCAACUC; result = 0.326
Sequence = GCAGAGGUGGUCUCUAGGGGGAGGCUGGUGCCAUUCCCUCCUGCCUGGCUCAGACCUCUUAGACUGGUCUCUCUUCCUCAGCUGCUGGGUUCUUUGUCUGCCCAGCUAUU; result = 0.404
Sequence = AUUAUCAAGUUUCAAAGACCUGUGUCAACCAUACAGCAAAGGCAGACCCCAUAACGACGUCCCACAAAAUGGAAAUAAAACGCAAAAUCUCUUUAGCAUUGUGUAAAUAA; result = 0.351

Excerpt of the above (series 1):
Substitution = G4Y; result = 0.415
Substitution = T1D; result = -0.175
Substitution = D10M; result = 0.931
Substitution = G4C; result = 1.05
Substitution = R6A; result = -0.266
Substitution = Q12P; result = -0.0359
Substitution = F9P; result = 0.52
Substitution = R5V; result = 0.778
